{"data": "Assay results pooled from the literature", "note": "Every numbered part comes from another study and shows a few of its results, in no order."}
{"data": "Set 1", "target": "RNA binding protein fox-1 homolog 2, RRM domain, GST-SBP tag (RBFOX2, Homo sapiens, UniProt O43251-10, residues 100-194)", "technique": "RNA Bind-n-Seq", "form": "RNA", "medium": "in vitro", "tested at": "365 nM", "notes": "natural RNA segment, single round, ends assumed", "baseline": "no-protein control", "reading": "higher = stronger binding", "shared flanks, not repeated": "GGGAGUUCUACAGUCCGACGAUC … UGGAAUUCUCGGGUGCCAA", "Residues (chain)": "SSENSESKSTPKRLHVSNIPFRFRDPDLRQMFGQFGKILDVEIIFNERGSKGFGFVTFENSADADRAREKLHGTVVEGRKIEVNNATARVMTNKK"}
{"Strand": "CAAUAGCUCAGAACCCGCCUAAACUGAAGGCCUUUUGGCUGCAUGGCUACAGCUUUCAGCCACUUACGGCCCCAGCUGGACAGAGCAGUGCUGUGUGGGUACUCCAAGUG", "RBNS enrichment (R)": 0.208}
{"Strand": "UUUAAUUCAUGUUUGAGUCUCUUAACUGAUGGAUGCCCACUUGCCUUAAAGCAGCAUACUUAUUUUUUGUUUAUUUAUUGUGAGCUUUUUACUUUAUUAAGAUUUUACAG", "RBNS enrichment (R)": 0.824}
{"Strand": "CCCUACAGAACUCCUCAAGAAAACAGAGAUCAUUUGGCUAGAGAUUGUCUGAGUGACUCCAAGCUACUCACUGUAUUGGACGGGAGUAGUAAUUUAUUUUAAAGAUAAAG", "RBNS enrichment (R)": 0.939}
{"Strand": "GGUUUGUUUGUUUUUGGGGAAAUUUUGAAAAGUGGAGUUGAUAUUAAAAAUAAAUGUGUAUGUGUGUACAUAUAUAUACACACACAUACACAUAUAUUAUGCAUGUGGUG", "RBNS enrichment (R)": 22.2}
{"Strand": "UUUUUUAAAAAAAAUCUAUAAAUAGGGUAAUUGCUGAGGUGUGCGGUUUAUCUUUGAGAUGAUAAAGCUAAAUUAUAGUCUUUUGCCAGAGAAACUGAGGUAACUGUCAU", "RBNS enrichment (R)": 0.603}
{"Strand": "CCCCAUUCUUUGCUUGAACACAGUAUUUUCCCAAUAGCACUUUCAUUGCCAGUGUCUUUCUUUGGUGCCUUUCCUGUUCAGCAUUCUUAGCCUGUGGCAGUAAAGAGAAA", "RBNS enrichment (R)": 2.36}
{"Strand": "AUUACCAGCUGAGAAGCUCUCCGAAACCGGUGGCUACGGGACUCUUCAGCAUGGAGAGGACACCGUGCCCCAGGGGCCUGAGUCUCAGGCAGAGUCCAUCCCAAUAAUAG", "RBNS enrichment (R)": 0.526}
{"Strand": "UUUAAAACUGGGUAGAAAUGUAAUAUACAUUGGACCACUUUUUUAAGCCUUAAUGAACAGUGUAUAUACAUCUGUGUAUGCACACUCCACCCCAGAGUGUUUUCAGUGUG", "RBNS enrichment (R)": 0.39}
{"data": "Set 2", "target": "Interferon regulatory factor 7, full length, phosphomimetic (IRF7, Homo sapiens, UniProt Q92985, residues 1-503, S101K/S471D/S472D/S475D/S476D/S477D/S483D/S484D/S487D)", "technique": "protein-binding microarray", "form": "double-stranded DNA, one strand shown", "medium": "in vitro", "tested at": "250 nM", "notes": "60-bp whole probe", "added": "salmon DNA 0.4 mg/ml", "baseline": "random background probes", "reading": "higher = stronger binding", "shared flanks, not repeated": "GCCTAGCAC … GTCTTGATTCGCTTGACGCTGCTG", "Residues (chain)": "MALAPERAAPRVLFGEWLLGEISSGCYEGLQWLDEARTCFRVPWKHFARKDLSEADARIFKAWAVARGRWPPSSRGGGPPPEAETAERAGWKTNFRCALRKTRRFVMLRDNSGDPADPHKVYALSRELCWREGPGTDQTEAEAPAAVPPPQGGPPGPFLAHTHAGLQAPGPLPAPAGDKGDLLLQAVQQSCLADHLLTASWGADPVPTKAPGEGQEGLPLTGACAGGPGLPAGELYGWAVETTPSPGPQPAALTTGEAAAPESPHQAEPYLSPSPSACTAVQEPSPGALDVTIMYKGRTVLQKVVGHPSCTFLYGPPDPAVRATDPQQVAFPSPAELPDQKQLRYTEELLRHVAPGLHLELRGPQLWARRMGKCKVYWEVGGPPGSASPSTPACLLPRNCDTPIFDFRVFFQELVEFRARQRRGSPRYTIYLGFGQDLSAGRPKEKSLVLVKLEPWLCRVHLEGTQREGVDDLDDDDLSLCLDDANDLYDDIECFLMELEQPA"}
{"Strand": "TTAGGTATCGTACTGCTTTAGTGCTAG", "log fluorescence [z-score]": 0.593}
{"Strand": "GACGGTTTCGACTTCCGGGACGTGCTA", "log fluorescence [z-score]": 11.5}
{"Strand": "GAATGATTACATATATGTTGGTGCTAG", "log fluorescence [z-score]": 0.147}
{"Strand": "TTAGGTATCGACTTTTGGTTAGTGCTA", "log fluorescence [z-score]": 0.464}
{"Strand": "GACGGACTAGGTTTCGGGACGTGCTAG", "log fluorescence [z-score]": 3}
{"Strand": "TCATCTCTAACCTCTCTAACTGTGCTA", "log fluorescence [z-score]": 0.614}
{"Strand": "GACGGACTGGGGTATCGTGACGTGCTA", "log fluorescence [z-score]": -0.697}
{"Strand": "TTAGAACTGGGTTTCGGTTAGTGCTAG", "log fluorescence [z-score]": 7.09}
{"Strand": "GGCGATTTCAGTTCCGAGACGTGCTAG", "log fluorescence [z-score]": -0.0593}
{"Strand": "TTAGGACTGAGGTTTCGGTTAGTGCTA", "log fluorescence [z-score]": 6.62}
{"Strand": "GACGATTCCAGACTGGAGACGTGCTAG", "log fluorescence [z-score]": 0.136}
{"Strand": "TCAAGTCTTCTCCTCTAACTGTGCTAG", "log fluorescence [z-score]": 0.0761}
{"Strand": "GACGAACTGAGTATCGAGAGGTGCTAG", "log fluorescence [z-score]": -0.143}
{"Strand": "TACGGACTGGACTATCGGGACGTGCTA", "log fluorescence [z-score]": -0.549}
{"Strand": "TTAGATCTCAGTCTAGATTAGTGCTAG", "log fluorescence [z-score]": -0.0224}
{"Strand": "TCACTCACCTAGTTTCATACTGTGCTA", "log fluorescence [z-score]": 1.2}
{"Strand": "CACGGTTTCGACTATCGGGACGTGCTA", "log fluorescence [z-score]": 6.07}
{"Strand": "TTGCTTTCCTTTATGTACTCGTGCTAG", "log fluorescence [z-score]": 1.49}
{"Strand": "TTAGGTATCGGACGGGGTTAGTGCTAG", "log fluorescence [z-score]": 0.0361}
{"data": "Set 3", "target": "Histone acetyltransferase KAT6A, winged helix 2, GST fusion (KAT6A, Homo sapiens, UniProt Q92794, residues 85-181)", "technique": "protein binding microarray", "form": "double-stranded DNA, one strand shown", "medium": "in vitro", "tested at": "not given", "notes": "8-mer, flanks averaged, mean of 2 arrays, mostly near background", "baseline": "not given", "reading": "higher = stronger binding", "Target sequence (chain)": "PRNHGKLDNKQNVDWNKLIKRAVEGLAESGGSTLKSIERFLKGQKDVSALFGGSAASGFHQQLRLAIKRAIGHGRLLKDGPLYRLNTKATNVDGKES"}
{"Strand": "CGGCTCAA", "E-score": 0.171}
{"Strand": "CCCTTATA", "E-score": -0.177}
{"Strand": "ACTCTGTA", "E-score": -0.0299}
{"Strand": "CCCACCCG", "E-score": 0.165}
{"Strand": "CCCCGGGC", "E-score": 0.223}
{"Strand": "GCGGAGCC", "E-score": 0.169}
{"Strand": "ATTATTGG", "E-score": -0.086}
{"Strand": "CCTTGAGC", "E-score": 0.00211}
{"Strand": "TTCCCGAA", "E-score": 0.085}
{"Strand": "CATAGGCG", "E-score": -0.08}
{"Strand": "AAGAGTGC", "E-score": -0.177}
{"Strand": "AGCGGTAC", "E-score": 0.00304}
{"Strand": "CGCGACCC", "E-score": 0.189}
{"Strand": "CTCCGGTC", "E-score": 0.137}
{"Strand": "ACTGACCC", "E-score": -0.0227}
{"Strand": "CGCACTGA", "E-score": 0.109}
{"Strand": "ACTGGATG", "E-score": -0.0356}
{"Strand": "ACGCATCT", "E-score": 0.0837}
{"Strand": "GAGTGCAA", "E-score": 0.0675}
{"Strand": "GTGTCCTA", "E-score": 0.0743}
{"Strand": "TCGGTAGA", "E-score": 0.0249}
{"Strand": "ACACGGAT", "E-score": -0.0286}
{"Strand": "ACGTAAAA", "E-score": -0.0516}
{"Strand": "ATTCAGAG", "E-score": -0.00677}
{"Strand": "AGAAAGCT", "E-score": 0.0437}
{"data": "Set 4", "target": "Sal-like protein 4, full length isoform A (SALL4, Homo sapiens, UniProt Q9UJQ4, residues 1-1053)", "technique": "universal PBM", "form": "double-stranded DNA, one strand shown", "medium": "in vitro", "tested at": "600 nM", "notes": "8-mer, flanks averaged, mean of replicates", "reading": "higher = stronger binding", "chain of UniProt Q9UJQ4 (whole entry, looked up)": "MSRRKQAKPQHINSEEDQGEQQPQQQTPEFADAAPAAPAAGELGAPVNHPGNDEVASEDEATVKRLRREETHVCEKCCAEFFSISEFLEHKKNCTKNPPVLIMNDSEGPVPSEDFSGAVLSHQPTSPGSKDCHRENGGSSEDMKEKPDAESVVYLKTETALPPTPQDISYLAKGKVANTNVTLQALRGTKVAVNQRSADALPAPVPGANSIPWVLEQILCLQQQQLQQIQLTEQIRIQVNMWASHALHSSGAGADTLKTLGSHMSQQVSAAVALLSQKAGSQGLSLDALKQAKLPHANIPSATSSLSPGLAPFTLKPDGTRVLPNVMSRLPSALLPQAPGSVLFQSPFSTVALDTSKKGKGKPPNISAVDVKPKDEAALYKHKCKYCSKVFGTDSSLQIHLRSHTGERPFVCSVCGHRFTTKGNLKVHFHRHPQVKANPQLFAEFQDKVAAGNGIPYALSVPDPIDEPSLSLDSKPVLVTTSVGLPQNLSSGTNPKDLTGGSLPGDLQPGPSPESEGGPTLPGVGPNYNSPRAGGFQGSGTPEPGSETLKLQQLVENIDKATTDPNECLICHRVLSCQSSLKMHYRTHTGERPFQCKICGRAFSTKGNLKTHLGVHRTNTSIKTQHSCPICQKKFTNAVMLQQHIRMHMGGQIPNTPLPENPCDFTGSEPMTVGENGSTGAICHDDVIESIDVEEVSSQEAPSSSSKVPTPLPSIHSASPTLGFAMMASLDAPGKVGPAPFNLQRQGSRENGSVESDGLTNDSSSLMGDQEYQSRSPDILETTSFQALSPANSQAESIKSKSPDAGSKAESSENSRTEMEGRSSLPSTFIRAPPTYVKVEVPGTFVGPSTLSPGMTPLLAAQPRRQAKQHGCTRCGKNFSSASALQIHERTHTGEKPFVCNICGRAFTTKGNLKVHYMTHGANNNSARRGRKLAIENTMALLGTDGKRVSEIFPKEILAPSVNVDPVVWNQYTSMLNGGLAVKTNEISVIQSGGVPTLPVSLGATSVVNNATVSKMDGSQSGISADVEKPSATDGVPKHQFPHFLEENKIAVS"}
{"Strand": "GGAGTCAC", "E-score": -0.264}
{"Strand": "GCGCGTTA", "E-score": 0.008}
{"Strand": "GACACAAA", "E-score": 0.0734}
{"Strand": "GAGACTTA", "E-score": 0.107}
{"Strand": "AGAGAGTA", "E-score": 0.0616}
{"Strand": "CACCTTGC", "E-score": -0.161}
{"Strand": "CGGAACCA", "E-score": -0.281}
{"Strand": "TACGTGCA", "E-score": -0.0568}
{"Strand": "AATTTAGC", "E-score": 0.192}
{"Strand": "ATTGGCAC", "E-score": 0.0782}
{"Strand": "AAATGAAA", "E-score": 0.324}
{"Strand": "ATAGACAG", "E-score": 0.161}
{"Strand": "CTGACGCC", "E-score": -0.292}
{"Strand": "AACGGCCC", "E-score": -0.245}
{"Strand": "CCCTCTGC", "E-score": -0.263}
{"Strand": "CAGGTGTC", "E-score": -0.224}
{"Strand": "ATGGAATC", "E-score": 0.158}
{"Strand": "CCGGAAAA", "E-score": -0.00222}
{"Strand": "CTTCCAAA", "E-score": 0.232}
{"Strand": "AGGAGGTG", "E-score": -0.225}
{"Strand": "ACCTGCGA", "E-score": -0.0982}
{"Strand": "GACATAGA", "E-score": 0.137}
{"Strand": "ATTCTCGA", "E-score": 0.0673}
{"Strand": "TCATTGGA", "E-score": 0.0667}
{"Strand": "CCTTGACG", "E-score": -0.248}
{"note": "Some of these lines once more (set 1):"}
{"Strand": "UUUAAUUCAUGUUUGAGUCUCUUAACUGAUGGAUGCCCACUUGCCUUAAAGCAGCAUACUUAUUUUUUGUUUAUUUAUUGUGAGCUUUUUACUUUAUUAAGAUUUUACAG", "RBNS enrichment (R)": 0.824}
{"Strand": "CCCUACAGAACUCCUCAAGAAAACAGAGAUCAUUUGGCUAGAGAUUGUCUGAGUGACUCCAAGCUACUCACUGUAUUGGACGGGAGUAGUAAUUUAUUUUAAAGAUAAAG", "RBNS enrichment (R)": 0.939}
{"Strand": "CAAUAGCUCAGAACCCGCCUAAACUGAAGGCCUUUUGGCUGCAUGGCUACAGCUUUCAGCCACUUACGGCCCCAGCUGGACAGAGCAGUGCUGUGUGGGUACUCCAAGUG", "RBNS enrichment (R)": 0.208}
{"Strand": "GGUUUGUUUGUUUUUGGGGAAAUUUUGAAAAGUGGAGUUGAUAUUAAAAAUAAAUGUGUAUGUGUGUACAUAUAUAUACACACACAUACACAUAUAUUAUGCAUGUGGUG", "RBNS enrichment (R)": 22.2}
{"Strand": "UUUAAAACUGGGUAGAAAUGUAAUAUACAUUGGACCACUUUUUUAAGCCUUAAUGAACAGUGUAUAUACAUCUGUGUAUGCACACUCCACCCCAGAGUGUUUUCAGUGUG", "RBNS enrichment (R)": 0.39}
{"Strand": "UUUUUUAAAAAAAAUCUAUAAAUAGGGUAAUUGCUGAGGUGUGCGGUUUAUCUUUGAGAUGAUAAAGCUAAAUUAUAGUCUUUUGCCAGAGAAACUGAGGUAACUGUCAU", "RBNS enrichment (R)": 0.603}
